Measured values collected from several papers.
A part holds a random share of what one study measured.

Series 1 — method: aptamer microarray, sandwich; molecule type: DNA with 2'F-ANA; sample: in vitro; concentration: 200 nM; added: Cy3 exosite-II aptamer, 400 nM; direction: higher = stronger binding
Target: Prothrombin, mature alpha-thrombin (F2, Homo sapiens, UniProt P00734)
Setting: whole 15-mer aptamer, many near background
| Sequence | mean fluorescence intensity |
| --- | --- |
| GGTTGGTGTGGTTGG (2'F-ANA at 2 11 12 14) | 192 a.u. |
| GGTTGGTGTGGTTGG (2'F-ANA at 1 3 4 6 7 9 10 12 15) | 96.2 a.u. |
| GGTTGGTGTGGTTGG (2'F-ANA at 1 2 5 6 9 10 13 15) | 47.4 a.u. |
| GGTTGGTGTGGTTGG (2'F-ANA at 4 5 6 11 13) | 62.9 a.u. |

Series 2 — method: universal PBM; molecule type: double-stranded DNA, one strand shown; sample: in vitro; concentration: not given; direction: higher = stronger binding
Target: Sal-like protein 4, full length isoform B (SALL4, Homo sapiens, UniProt Q9UJQ4-2, residues 1-616)
Setting: 8-mer, flanks averaged, mean of replicates
| Sequence | E-score |
| --- | --- |
| TCAGCGAA | -0.0815 |
| CAAAGATA | 0.208 |
| AGCATTCG | -0.0862 |
| CAATCCGC | -0.0432 |

Series 3 — method: RNA Bind-n-Seq; molecule type: RNA; sample: in vitro; concentration: 1 µM; setting: whole 134-nt RNA, ends assumed; added: 150 mM KCl; reference: input library; direction: higher = stronger binding
Target: Ras GTPase-activating protein-binding protein 1, RRM domain (G3BP1, Homo sapiens, UniProt Q13283)
Chain of UniProt Q13283 (whole entry, looked up): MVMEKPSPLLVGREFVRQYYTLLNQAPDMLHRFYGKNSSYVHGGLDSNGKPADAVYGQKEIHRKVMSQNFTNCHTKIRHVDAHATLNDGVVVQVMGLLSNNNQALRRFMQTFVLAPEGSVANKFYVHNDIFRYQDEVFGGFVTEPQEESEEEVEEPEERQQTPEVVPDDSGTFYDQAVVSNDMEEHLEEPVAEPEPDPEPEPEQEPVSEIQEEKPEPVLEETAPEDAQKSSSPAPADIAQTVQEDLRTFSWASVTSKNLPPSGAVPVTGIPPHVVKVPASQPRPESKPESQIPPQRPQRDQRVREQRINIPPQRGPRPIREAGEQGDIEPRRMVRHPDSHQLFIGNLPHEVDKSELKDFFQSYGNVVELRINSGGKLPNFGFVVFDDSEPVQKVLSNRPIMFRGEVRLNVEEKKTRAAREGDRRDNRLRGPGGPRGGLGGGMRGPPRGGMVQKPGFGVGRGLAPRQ
| Sequence | log2 enrichment |
| --- | --- |
| GGGAGUUCUACAGUCCGACGAUCAAGUCCUGUGCUACACAUCGUAUGUACCGAAUCGGGAAAAGGGGAAAAGGAAAAGGAAAGUAUUAUGUUACGCCGUUCGGAUCUGCACUUUGGAAUUCUCGGGUGUCAAGG | -0.217 |
| GGGAGUUCUACAGUCCGACGAUCAGUCCUGUGCUACACAUCGUAUGUACCGAAUCAAAUUUAAACCCCCAAAUUUUUAAAAAAGUAUUAUGUUACGCCGUUCGGAUCUGCACUUGGAAUUCUCGGGUGUCAAGG | -0.105 |
| GGGAGUUCUACAGUCCGACGAUCUAACUUUAGAGGAGGAUCUGAUGGAUAUGGCAGUGGACGUGGAUUUGGGGAUGGCUAUAAUUGGUAUGGAGGAGGACCUGGAGGUGGCAAUGGAAUUCUCGGGUGUCAAGG | -0.321 |

Other studies, line by line
| Substance | target | assay | test system | conditions | scale | measurement | value |
| --- | --- | --- | --- | --- | --- | --- | --- |
| PhoQ, residues 284 288 289 292 302 303 SSYNSA | PhoP, residues 12 14 15 18 19 GQAIL (Escherichia coli, UniProt P23836) | Sort-seq, measured: YFP reporter | E. coli | PhoQ-PhoP variant library, added: 10 µM Mg2+ | reference: high Mg2+ state, higher = stronger signaling | fold induction | 9.01 |

Repeated from above (series 1):
| Sequence | mean fluorescence intensity |
| --- | --- |
| GGTTGGTGTGGTTGG (2'F-ANA at 4 5 6 11 13) | 62.9 a.u. |
